Measured values pooled from the literature.
Compare with care: the assays were run in different laboratories.
Technique: steady-state kinetics
B1: Saccharopine reductase C154S (Saccharomyces cerevisiae, UniProt P38999); chain MGKNVLLLGSGFVAQPVIDTLAANDDINVTVACRTLANAQALAKPSGSKAISLDVTDDSALDKVLADNDVVISLIPYTFHPNVVKSAIRTKTDVVTSSYISPALRELEPEIVKAGITVMNEIGLDPGIDHLYAVKTIDEVHRAGGKLKSFLSYSGGLPAPEDSDNPLGYKFSWSSRGVLLALRNSAKYWKDGKIETVSSEDLMATAKPYFIYPGYAFVCYPNRDSTLFKDLYHIPEAETVIRGTLRYQGFPEFVKALVDMGMLKDDANEIFSKPIAWNEALKQYLGAKSTSKEDLIASIDSKATWKDDEDRERILSGFAWLGLFSDAKITPRGNALDTLCARLEELMQYEDNERDMVVLQHKFGIEWADGTTETRTSTLVDYGKVGGYSSMAATVGYPVAIATKFVLDGTIKGPGLLAPYSPEINDPIMKELKDKYGIYLKEKTVA
B2: moaA (Staphylococcus aureus, UniProt P69848); chain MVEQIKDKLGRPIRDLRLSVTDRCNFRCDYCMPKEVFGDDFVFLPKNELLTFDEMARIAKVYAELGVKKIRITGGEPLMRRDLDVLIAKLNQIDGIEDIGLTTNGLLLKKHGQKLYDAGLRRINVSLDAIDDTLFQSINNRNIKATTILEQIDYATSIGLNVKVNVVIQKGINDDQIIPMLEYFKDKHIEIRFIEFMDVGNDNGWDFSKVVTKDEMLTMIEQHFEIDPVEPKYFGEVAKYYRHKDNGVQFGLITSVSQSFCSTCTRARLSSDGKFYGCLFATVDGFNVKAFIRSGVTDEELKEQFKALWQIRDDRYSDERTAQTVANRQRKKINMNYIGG
B3: DCXR (Homo sapiens, UniProt Q7Z4W1); chain MELFLAGRRVLVTGAGKGIGRGTVQALHATGARVVAVSRTQADLDSLVRECPGIEPVCVDLGDWEATERALGSVGPVDLLVNNAAVALLQPFLEVTKEAFDRSFEVNLRAVIQVSQIVARGLIARGVPGAIVNVSSQCSQRAVTNHSVYCSTKGALDMLTKVMALELGPHKIRVNAVNPTVVMTSMGQATWSDPHKAKTMLNRIPLGKFAEVEHVVNAILFLLSDRSGMTTGSTLPVEGGFWAC
B4: Rtr1 residues 1-213 (Saccharomyces cerevisiae, UniProt P40084); chain MATIEDIKETALIPFQKHRQLSMHEAEVITLEIIGLLCDSECKDEKTLKYLGRFLTPDMYQDLVDERNLNKRCGYPLCGKSPERIRDPFSMNDTTKKFLLENNPYAYLSHYCSKFHFRCSQFYQVQLSDEALFARTGVHLFEDPEQDKHDIDFKVTLFEELLREKASEEDIKSLISGLKKLGLNPDSGTTEKDDTELEDDLSKWLAQIKIVEN
B5: clpA (Escherichia coli, UniProt P0ABH9); chain MLNQELELSLNMAFARAREHRHEFMTVEHLLLALLSNPSAREALEACSVDLVALRQELEAFIEQTTPVLPASEEERDTQPTLSFQRVLQRAVFHVQSSGRNEVTGANVLVAIFSEQESQAAYLLRKHEVSRLDVVNFISHGTRKDEPTQSSDPGSQPNSEEQAGGEERMENFTTNLNQLARVGGIDPLIGREKELERAIQVLCRRRKNNPLLVGESGVGKTAIAEGLAWRIVQGDVPEVMADCTIYSLDIGSLLAGTKYRGDFEKRFKALLKQLEQDTNSILFIDEIHTIIGAGAASGGQVDAANLIKPLLSSGKIRVIGSTTYQEFSNIFEKDRALARRFQKIDITEPSIEETVQIINGLKPKYEAHHDVRYTAKAVRAAVELAVKYINDRHLPDKAIDVIDEAGARARLMPVSKRKKTVNVADIESVVARIARIPEKSVSQSDRDTLKNLGDRLKMLVFGQDKAIEALTEAIKMARAGLGHEHKPVGSFLFAGPTGVGKTEVTVQLSKALGIELLRFDMSEYMERHTVSRLIGAPPGYVGFDQGGLLTDAVIKHPHAVLLLDEIEKAHPDVFNILLQVMDNGTLTDNNGRKADFRNVVLVMTTNAGVRETERKSIGLIHQDNSTDAMEEIKKIFTPEFRNRLDNIIWFDHLSTDVIHQVVDKFIVELQVQLDQKGVSLEVSQEARNWLAEKGYDRAMGARPMARVIQDNLKKPLANELLFGSLVDGGQVTVALDKEKNELTYGFQSAQKHKAEAAH
B6: FMO3 E308G (Homo sapiens, UniProt P31513); chain GKKVAIIGAGVSGLASIRSCLEEGLEPTCFEKSNDIGGLWKFSDHAEEGRASIYKSVFSNSSKEMMCFPDFPFPDDFPNFMHNSKIQEYIIAFAKEKNLLKYIQFKTFVSSVNKHPDFATTGQWDVTTERDGKKESAVFDAVMVCSGHHVYPNLPKESFPGLNHFKGKCFHSRDYKEPGVFNGKRVLVVGLGNSGCDIATELSRTAEQVMISSRSGSWVMSRVWDNGYPWDMLLVTRFGTFLKNNLPTAISDWLYVKQMNARFKHENYGLMPLNGVLRKEPVFNDELPASILCGIVSVKPNVKEFTGTSAIFEDGTIFEGIDCVIFATGYSFAYPFLDESIIKSRNNEIILFKGVFPPLLEKSTIAVIGFVQSLGAAIPTVDLQSRWAAQVIKGTCTLPSMEDMMNDINEKMEKKRKWFGKSETIQTDYIVYMDELSSFIGAKPNIPWLFLTDPKLAMEVYFGPCSPYQFRLVGPGQWPGARNAILTQWDRSLKPMQTRVVGRLQKPCFFFHWLKLFAIPILLIAVFLVLT
B7: sacB Y421F (Priestia megaterium, UniProt D5DC07); chain KGNDSKDFNNSYGISHITRDNMVKIPQQQNSDQFKVPAFDESTIKNIASAKGKNASGNTIDLDVWDSWPLQNADGTVATYHGYQIVFALAGDPKDSNDTSVYLFYKKAGDKSIDSWKNAGRVFKDSDKFVPNDPHLKNQTQEWSGSGTLTKDGKVRLFYTDYSGKQYGKQTLTTAQVNMSQPNDNTLKVDGVEDYKSIFDGDGKIYQTVQQFIDEGGYDTGDNHTLRDPHYIEDNGHKYLVFEANTGTEDGYQGEDSLYNRAYYGGNNPFFQSEKKKLLEGSNKEKASLANGALGIIELNDDYTLKKVMKPLITSNTVTDEIERANIFKKDGKWYLFTDSRGSKMTIDGIGQDDVYMLGYVSNTLTGKYKPLNDTGLVLHMDLDPNDKTFTFSHFAVPQTKGDNVVITSYMTNRGFYEDNHSTFAPSFLVNIDGSKTSVVKDRVLEQGQLTVDED
B8: protein (Danio rerio, UniProt A0A8M1P203); chain MAQEECKMISDKLLKYKETVLTLEPSYDITPEYIDSIQDFETRDDDVFVVTFPKSGTVWTQRIITLIYEEDFPEKAKQITFEQMPWIEYRKKGKDYSTRPSPRLFCSHLLEPLMPKTLKRKGKVIYVMRNPKDVMVSYFHFSKKMKNLDSAKSYDEVLENFLTGCMVGGSWFDHVKGWVTSKDKYNILILTYEEMIKDLRSVIVKICEFVGKNLSDAAIDKVVERATFKQMKVDPVANYESLPVDITDQPKGAFMRKGTVGDWRNSLTMAQSECVDGALEERMKDVPLNLVWDITELRG
Chain of UniProt O31663 (whole entry, looked up): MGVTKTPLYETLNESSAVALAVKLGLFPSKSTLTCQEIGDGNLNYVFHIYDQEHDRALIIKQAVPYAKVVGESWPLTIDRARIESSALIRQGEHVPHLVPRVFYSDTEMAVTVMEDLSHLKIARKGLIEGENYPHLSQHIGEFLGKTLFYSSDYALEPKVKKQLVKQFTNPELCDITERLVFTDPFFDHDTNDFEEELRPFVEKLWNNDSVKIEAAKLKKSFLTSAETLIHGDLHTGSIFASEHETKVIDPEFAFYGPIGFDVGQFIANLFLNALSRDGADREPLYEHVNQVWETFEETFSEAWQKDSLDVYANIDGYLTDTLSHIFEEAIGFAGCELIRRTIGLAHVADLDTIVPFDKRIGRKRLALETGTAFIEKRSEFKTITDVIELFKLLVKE
Chain of UniProt Q9UYB2 (whole entry, looked up): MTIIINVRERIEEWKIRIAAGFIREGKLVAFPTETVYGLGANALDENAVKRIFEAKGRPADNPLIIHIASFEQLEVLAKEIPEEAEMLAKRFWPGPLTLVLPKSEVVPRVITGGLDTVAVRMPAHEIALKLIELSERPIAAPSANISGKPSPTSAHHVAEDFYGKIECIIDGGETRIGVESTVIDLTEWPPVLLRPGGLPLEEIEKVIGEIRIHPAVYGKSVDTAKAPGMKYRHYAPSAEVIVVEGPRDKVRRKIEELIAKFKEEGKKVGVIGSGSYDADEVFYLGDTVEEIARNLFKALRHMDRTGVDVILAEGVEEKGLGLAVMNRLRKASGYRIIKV
Chain of UniProt P0AEJ2 (whole entry, looked up): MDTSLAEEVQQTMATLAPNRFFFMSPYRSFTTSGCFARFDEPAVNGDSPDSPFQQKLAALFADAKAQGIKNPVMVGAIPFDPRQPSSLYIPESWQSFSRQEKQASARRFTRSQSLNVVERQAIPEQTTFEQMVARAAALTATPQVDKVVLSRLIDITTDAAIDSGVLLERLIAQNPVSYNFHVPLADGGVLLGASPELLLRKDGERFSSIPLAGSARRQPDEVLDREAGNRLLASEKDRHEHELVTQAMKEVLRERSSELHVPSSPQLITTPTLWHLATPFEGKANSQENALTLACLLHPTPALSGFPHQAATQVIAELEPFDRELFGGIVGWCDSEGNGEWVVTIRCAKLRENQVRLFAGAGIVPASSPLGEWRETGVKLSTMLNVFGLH

Molecule | substrate | matrix | pH | temperature | setting | added | Km [µM]
B1 (Saccharopine reductase C154S) | N[C@@H](CCC(=O)O)C(=O)O | – | pH 7 | 25 °C | – | NADPH, AASA | 67000
mtnK (Bacillus subtilis, UniProt O31663) | Nc1ncnc2c1ncn2[C@@H]1O[C@H](COP(=O)(O)OP(=O)(O)OP(=O)(O)O)[C@@H](O)[C@H]1O | – | pH 7.8 | 30 °C | – | 5-methylthioribose | 90
Sua5 (Pyrococcus abyssi, UniProt Q9UYB2) | Nc1ncnc2c1ncn2[C@@H]1O[C@H](COP(=O)(O)OP(=O)(O)OP(=O)(O)O)[C@@H](O)[C@H]1O | – | pH 8 | 50 °C | – | L-threonine, ATP 5–500 µM, MnCl2 1 mM, MgCl2 10 mM | 5.5
B2 (moaA) | C[S+](CC[C@H](N)C(=O)O)C[C@H]1O[C@@H](n2cnc3c(N)ncnc32)[C@H](O)[C@@H]1O | – | pH 7.6 | 25 °C | – | GTP, dithionite, MgCl2 1 mM | 4.1
B3 (DCXR) | CC(=O)C(C)=O | – | pH 7 | – | – | NADPH 200 µM | 170
B4 (Rtr1 residues 1-213) | Cc1cc(=O)oc2c(F)c(OP(=O)(O)O)c(F)cc12 | – | pH 6 | – | NaCl 150 mM, no metal added | – | 41.2
entC (Escherichia coli, UniProt P0AEJ2) | C=C(O[C@@H]1C=C(C(=O)O)C=C[C@H]1O)C(=O)O | – | pH 8 | 21 °C | apparent | – | 53
bga (Niallia circulans, UniProt E5RWQ2) | O=[N+]([O-])c1ccccc1O[C@@H]1O[C@H](CO)[C@H](O)[C@H](O)[C@H]1O | – | pH 6 | 40 °C | low-substrate phase, biphasic | – | 1500
B5 (clpA) | Nc1ncnc2c1ncn2[C@@H]1O[C@H](CO[P@](=O)(O)O[P@](=O)(O)O[P@@](=O)(O)S)[C@@H](O)[C@H]1O | – | pH 7.5 | 25 °C | NaCl 300 mM, no ClpP, no polypeptide | MgCl2 10 mM | 134
B6 (FMO3 E308G) | CN1CCC[C@H]1c1cccnc1 | HEK293 microsomes | – | 37 °C | not purified | NADPH regenerating system | 1700
B7 (sacB Y421F) | OC[C@H]1O[C@@](CO)(O[C@H]2O[C@H](CO)[C@@H](O)[C@H](O)[C@H]2O)[C@@H](O)[C@@H]1O | – | pH 6.6 | – | – | – | 31700
B8 (protein) | C[C@H](CCCC(CO)CO)[C@H]1CC[C@H]2[C@@H]3[C@H](O)C[C@H]4C[C@H](O)CC[C@]4(C)[C@H]3C[C@H](O)[C@]12C | – | pH 7 | 28 °C | substrate inhibition | PAPS 14 µM | 217

For quick reference, copied from above:
Molecule | substrate | matrix | pH | temperature | setting | added | Km [µM]
entC (Escherichia coli, UniProt P0AEJ2) | C=C(O[C@@H]1C=C(C(=O)O)C=C[C@H]1O)C(=O)O | – | pH 8 | 21 °C | apparent | – | 53
